Experimental data from different studies.
Parts stem from different laboratories: compare values within a part only.

Series 1
Target: Histone acetyltransferase KAT6A, winged helix 1, GST fusion (KAT6A, Homo sapiens, UniProt Q92794, residues 1-85)
Method: protein binding microarray
Molecule type: double-stranded DNA, one strand shown
Sample: in vitro
Tested at: not given
Setting: 8-mer, flanks averaged, mean of 2 arrays, mostly near background
Reference: not given
Direction: higher = stronger binding
Endpoint: E-score
Residues (chain): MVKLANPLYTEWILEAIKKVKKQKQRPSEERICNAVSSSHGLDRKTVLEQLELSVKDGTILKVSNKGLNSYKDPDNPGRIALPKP
ACGTTTGG: -0.062
CAATACAC: -0.0315
ATTAAGGA: -0.0161
AAACAGGC: -0.0863
CCGCGTCG: 0.419
TCGTTTCA: -0.0849

Series 2
Target: Sal-like protein 4, full length isoform B (SALL4, Homo sapiens, UniProt Q9UJQ4-2, residues 1-616)
Method: universal PBM
Molecule type: double-stranded DNA, one strand shown
Sample: in vitro
Tested at: not given
Setting: 8-mer, flanks averaged, mean of replicates
Direction: higher = stronger binding
Endpoint: E-score
Construct (chain): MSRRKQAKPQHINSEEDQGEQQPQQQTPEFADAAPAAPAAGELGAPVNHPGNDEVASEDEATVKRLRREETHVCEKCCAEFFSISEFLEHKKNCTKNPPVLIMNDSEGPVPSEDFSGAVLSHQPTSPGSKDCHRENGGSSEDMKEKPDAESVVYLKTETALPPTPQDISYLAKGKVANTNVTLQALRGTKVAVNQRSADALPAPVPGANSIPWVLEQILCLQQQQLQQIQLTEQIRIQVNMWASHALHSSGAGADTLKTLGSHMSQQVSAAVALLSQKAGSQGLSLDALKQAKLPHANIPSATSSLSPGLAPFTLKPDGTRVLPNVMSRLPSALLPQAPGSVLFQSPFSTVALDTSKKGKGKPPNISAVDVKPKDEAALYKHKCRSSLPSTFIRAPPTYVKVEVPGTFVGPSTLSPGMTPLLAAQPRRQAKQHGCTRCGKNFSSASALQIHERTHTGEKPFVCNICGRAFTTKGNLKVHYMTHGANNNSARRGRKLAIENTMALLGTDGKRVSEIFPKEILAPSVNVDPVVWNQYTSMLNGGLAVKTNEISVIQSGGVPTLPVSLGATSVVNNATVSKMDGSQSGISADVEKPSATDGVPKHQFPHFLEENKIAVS
TAGCCCAA: 0.03
AACCACCT: 0.0387
GTCTATCA: 0.156
AGTAAAAA: 0.356
AGGATTAA: 0.147

Series 3
Target: Phosphate system positive regulatory protein PHO4, full length, GST-tagged (PHO4, Saccharomyces cerevisiae, UniProt P07270, residues 1-312)
Method: competition protein-binding microarray
Molecule type: double-stranded DNA, one strand shown
Sample: in vitro
Tested at: 2 µM
Setting: whole 60-bp probe, lowest competitor level
With: Cbf1 competitor, 0.05 µM
Direction: higher = stronger binding
Endpoint: fluorescence intensity
Construct (chain): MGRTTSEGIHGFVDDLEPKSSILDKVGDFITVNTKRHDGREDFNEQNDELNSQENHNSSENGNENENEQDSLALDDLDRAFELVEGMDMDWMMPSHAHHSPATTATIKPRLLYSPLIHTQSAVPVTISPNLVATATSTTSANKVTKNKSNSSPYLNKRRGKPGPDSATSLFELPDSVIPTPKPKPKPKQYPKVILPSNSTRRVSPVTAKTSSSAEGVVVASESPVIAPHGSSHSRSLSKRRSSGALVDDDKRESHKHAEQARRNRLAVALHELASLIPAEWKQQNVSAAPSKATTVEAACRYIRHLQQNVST
GTACTGAGGTTAACACACGTTGTTGCGTACTCATCAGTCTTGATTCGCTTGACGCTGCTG: 12600 a.u.
CCTGCAGCTGGCTCATTCGTGCTTTACTCTCTTTCCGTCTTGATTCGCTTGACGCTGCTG: 5640 a.u.
CCACCGGGGGCAAGTCTCATGACAATTGGCGCAAATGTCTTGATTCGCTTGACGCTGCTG: 4130 a.u.
AATGATCTTGTTTCTCATGTGGGTTCTGACTGGAGCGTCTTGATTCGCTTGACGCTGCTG: 5710 a.u.
AACGACGAATCCTGTCACATGTCTTGCTTGGTCGCAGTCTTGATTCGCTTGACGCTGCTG: 10100 a.u.

Further values, each from its own experiment
PhoQ, residues 284 288 289 292 302 303 SSCCRF
fold induction (PhoP, residues 12 14 15 18 19 LHTVM (Escherichia coli, UniProt P23836); Sort-seq, refers to: YFP reporter; E. coli; PhoQ-PhoP variant library, with: 10 µM Mg2+; reference: high Mg2+ state, higher = stronger signaling): 18.3

Some of these lines once more (series 1):
ATTAAGGA: -0.0161
AAACAGGC: -0.0863
